Results gathered from unrelated publications.
Protocols differ between the studies behind these lines. ± gives the spread as reported.
AR: Androgen receptor (AR, Homo sapiens, UniProt P10275)
GLP1R: Glucagon-like peptide 1 receptor (GLP1R, Homo sapiens, UniProt P43220)

SMILES | target | assay | test system | setting | how to read | quantity | result
Nc1nc2c(ncn2C2OC3COP(=O)(O)OC4C5OCC4(CSP(=O)(O)OC3C2F)OC5n2cnc3c(=O)[nH]c(N)nc32)c(=O)[nH]1 (stereo not drawn) | Stimulator of interferon genes protein (STING1, Homo sapiens, UniProt Q86WV6) | thermal shift |  |  | higher = stronger stabilisation | ΔTm | 8 °C
CC1(CO)CCCC2(C)C1CCC1(C)c3cocc3CCC12 (stereo not drawn) | AR | reporter gene, antagonist | CV-1 transfected with AR | 10 µM, 24 h, together with: R1881 1 nM |  | transcriptional activity | inhibited
CCSc1nc2c([nH]1)c(=O)n(C)c(=O)n2C | AR | reporter gene, antagonist, PSA-luciferase | HeLa-A6 | 10 µM, 24 h, together with: 5 nM dihydrotestosterone | relative to: maximal activity | remaining activity | 115%
O=C(O)/C=C/c1ccccc1 | PAL1 (Petroselinum crispum, UniProt P24481, Y110F) | isothermal titration calorimetry |  | concentration not given | relative to: wild type minus Y110F | ΔΔG binding | -0.6 kcal/mol
COc1ccc(-c2cc(C(F)(F)F)nc(S(=O)(=O)CCCC(=O)Nc3c(F)cc(F)cc3Br)n2)cc1OC | GLP1R | cAMP accumulation, positive allosteric modulator | HEK-293T overexpressing GLP1R | together with: EC20 GLP-1 |  | Emax | 57 ± 31%
CC(C)(Cn1cc(-c2cnc3cccnn23)nn1)c1c[nH]c2ccccc12 | GLP1R | positive allosteric modulator, measured: cAMP | CHO-K1 expressing GLP1R | 10 µM, together with: GLP-1(9-36) | relative to: GLP-1 alone | fold shift of EC50 | 86 fold
O=C1Nc2c(ccc(Cl)c2Cl)/C1=N/O | Calm1/Kcnn2, SK2-a isoform (Rattus norvegicus, UniProt P0DP29+P70604, A477I) | channel current, potentiator, inside-out patch clamp |  | together with: 200 nM Ca2+ | relative to: mutant over wild type | EC50 shift | 5 fold
CC(C)(C)CCN1C[C@@H]2[C@@H](CNC(=O)c3cc(Cl)cc(Cl)c3)[C@@H]2C1.Cl | Voltage-dependent L-type calcium channel subunit alpha-1F (Homo sapiens, UniProt O60840) | calcium current, whole-cell patch clamp | HEK-293T cells | 50 nM, holding potential -50 mV, together with: β2 and α2δ subunits |  | half-activation voltage | 1.04 ± 1.6 mV
CC(=O)c1ccc(NC(=O)c2nc(-c3ccccc3)n(-c3ccc(C)cc3)n2)cc1 | Cannabinoid receptor 1 (CNR1, Homo sapiens, UniProt P21554) |  | HEK293 expressing CB1-GFP | 10 µM, 6 h | relative to: untreated | cell surface receptor level | increased
Nc1ncnc2c1ncn2[C@@H]1O[C@H](COP(=O)(O)OP(=O)(O)NP(=O)(O)O)[C@@H](O)[C@H]1O | S-adenosylmethionine synthase isoform type-2 (MAT2A, Homo sapiens, UniProt P31153) | AdoMet formation, substrate |  |  | relative to: ATP over analogue | kcat fold decrease | 1000 fold
NCCCNCCCCNCCCNCc1ccccc1 | Smox (Mus musculus, UniProt Q99K82) | enzyme activity, substrate, fluorescence |  | pH 7.5 |  | Km | 19 µM
COc1c(F)c(F)c(C(=O)N[C@H]2[C@@H](O)[C@@H](CO)O[C@@H](S[C@@H]3O[C@H](CO)[C@H](O)[C@H](NC(=O)c4c(F)c(F)c(OC)c(F)c4F)[C@H]3OS(=O)(=O)O)[C@@H]2O)c(F)c1F | Galectin-3 (LGALS3, Homo sapiens, UniProt P17931) | ITC |  | concentration not given, Kd fixed from FP |  | binding stoichiometry | 1.06

Repeated from above:
SMILES | target | assay | test system | setting | how to read | quantity | result
COc1ccc(-c2cc(C(F)(F)F)nc(S(=O)(=O)CCCC(=O)Nc3c(F)cc(F)cc3Br)n2)cc1OC | GLP1R | cAMP accumulation, positive allosteric modulator | HEK-293T overexpressing GLP1R | together with: EC20 GLP-1 |  | Emax | 57 ± 31%
CC(=O)c1ccc(NC(=O)c2nc(-c3ccccc3)n(-c3ccc(C)cc3)n2)cc1 | Cannabinoid receptor 1 (CNR1, Homo sapiens, UniProt P21554) |  | HEK293 expressing CB1-GFP | 10 µM, 6 h | relative to: untreated | cell surface receptor level | increased
